Measurements from different studies.
Parts stem from different laboratories: compare values within a part only.

Series 1
Target: RING finger protein unkempt homolog, zinc fingers 1-6, GST-SBP tag (UNK, Homo sapiens, UniProt Q9C0B0, residues 30-357)
Technique: RNA Bind-n-Seq
Molecule type: RNA
Sample: in vitro
Tested at: not given
Setting: RNA with constant flanks, human and mouse sites, ends assumed
Reference: input RNA pool
Direction: higher = stronger binding
Quantity: bound/input enrichment
Shared flanks, not repeated: GGGAGUUCUACAGUCCGACGAUC … CAACAGAGGAUUGAGCAUCA
Construct (chain): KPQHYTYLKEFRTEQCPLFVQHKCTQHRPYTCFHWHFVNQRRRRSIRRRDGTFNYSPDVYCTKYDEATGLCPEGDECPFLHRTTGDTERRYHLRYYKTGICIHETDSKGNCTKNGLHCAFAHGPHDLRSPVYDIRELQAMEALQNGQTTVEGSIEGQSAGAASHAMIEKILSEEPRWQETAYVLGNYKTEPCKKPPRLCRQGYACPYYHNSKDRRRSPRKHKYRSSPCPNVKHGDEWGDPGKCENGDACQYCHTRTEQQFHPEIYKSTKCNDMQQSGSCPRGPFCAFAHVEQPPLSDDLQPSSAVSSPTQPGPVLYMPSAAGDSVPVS
GUCCCAAACAUUUCUGUACAUCUGCUACAUGAACCCCCUGCACUGACUAAUGAAAUGUAUUGUUUGGUUGUGACUGUUCAGUCCCAUGAAAAGACCCAAAUCAGAGAUGUGAAGCUCACC: 0.669 ratio
CUUAAUGUUAAUAUUUUUGAAUAAAUGAAGCUAAAAUGUCUGCUUUUGGUACAACACGCAUUAAUAAAAGGUUAAGUUUUGUUUUCCACUGAAGUACUAUUUAACAUCUCAGAAAAAAAC: 0.289 ratio
CAGGCCGACUACGUGCCAAGUGACCAGGACCUGCUUCGCUGCCGUGUCCUGACCUCUGGAAUCUUUGAGACCAAGUUCCAGGUGGACAAAGUCAACUUCCACAUGUUCGAUGUGGGCGGC: 0.0669 ratio
GGUGUGUUUUUUCUGGAUAUCACAUUUUCAUCAGAUUAUCCAUUUAAGCCACCAAAGGUUACUUUCCGCACCAGAAUCUAUCACUGCAACAUCAACAGUCAGGGAGUCAUCUGUCUGGAC: 0.182 ratio
UUAUAAGCGGCGUCUUCGAACGCGCCGCGGCAGCCAUGUUGAUCGUGGCUAGCACAGGGGCCGGCACCAGCGGGUUUUAGAAGCAGGUGUCAUGAUGUUGUCCGCGGUGUUGAGGAGAAC: 0.357 ratio
ACUCAAGUAACAACACAACCAAAGUUAGGAGAGGUACAGCAGAAGUGUCAUCAAUUCUGUGGCUGGGAAGGGUCUGGAUUCCCUGGAGCACAGCCUGUUUCCAUGGACAAGCAAAAUAUU: 0.26 ratio
CUGUUUUGGAACAACACAUUUUUGUAAUGCUUGUCAUGAUGAUUUUCAAAGAAUGACUAGCAUUCCUAAGGAAGAACUACCACACUGUCCUGCAGGUCCCAAAGGCAAGCAGUUAGAAGG: 0.451 ratio
GAUGAGCAACGGCAGCCUUUAACAGUUGAGCACAUGUAUGAAGACAUCAGUCAAGAUCAUGUGAAGAAAACAGUGACCAUUGAAAACCAUCCUCAUCUCCCACCACCUCCUAUGUGUUCA: 0.141 ratio
UUCUAAGCAUACCUUUGGAAUUUUUCCAUCUUUUUUGAGGCUUUUGGUCCAGUGAAGUUCUAAGUAUUCACUGGCACUUCUCUCCUCAACUGUAAUUCUAUUUUUAAUAAUAAAAAUGGC: 0.364 ratio
AAGGAUGCAAGGUCCGAUUCCUGGCAGCUCGUGCAGACCCAGUGCCUACCUUCCUCUUCCAAUAGCAUUGGCUGCUCCCCGUUCCAGUUCCAUGAAGCCACCAUUUAUAAUGCUGUCAAC: 0.148 ratio
CGUUACUUGUGCCAGUCUAAUGCACUACCGAGUCAUGUAAAGAUCAAUGUGUCCCGACAGACAUUAUUUGAAGAUUCCUUCCAACAGAUUAUGGCAUUAAAACCAUAUGACUUGAGGAGG: 0.122 ratio

Series 2
Target: RNA binding protein fox-1 homolog 2, RRM domain, GST-SBP tag (RBFOX2, Homo sapiens, UniProt O43251-10, residues 100-194)
Technique: RNA Bind-n-Seq
Molecule type: RNA
Sample: in vitro
Tested at: 365 nM
Setting: natural RNA segment, single round, ends assumed
Reference: no-protein control
Direction: higher = stronger binding
Quantity: RBNS enrichment (R)
Shared flanks, not repeated: GGGAGUUCUACAGUCCGACGAUC … UGGAAUUCUCGGGUGCCAA
Construct (chain): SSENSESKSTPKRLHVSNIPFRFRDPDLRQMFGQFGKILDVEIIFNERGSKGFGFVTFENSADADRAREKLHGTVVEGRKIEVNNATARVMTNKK
UAGAGGACAUCUCGGUCGUUUGAGGGGCAUGGCCAGUCGUGGCAGGCCGGCCUUCAGCGUCCGGUCAGGGAAGCGUGCAGCCCAAAUGGGCACUUGCAUGGGAGCCACAG: 0.847
CACUAAGCCAGGCACCGGGCAGAAGCUGGGCCUUCCGCCUCCCUUGGAUGGGGUCAAGAGGCCAGGCCUGGCACAUUUUGGAGUGUCCUGGCUACCAGCUCUCACCUACA: 0.342
GCGCCUCCUGCGGCCCCUCCAGUGCUGUCCCUCCGCUGUCUAGCAGCCCUAGGGGCGUGUCAGCCGCACCUCUGGGACGGGCCCUUCCUUGCGGUGCUGCCGUCCUUUUG: 0.369
AAGCUGCCAGUCUAAAUUCUAAAUAGUGUAUCUGAAAUCUCAGUUCCCAAAAUAGUUGUCAGGUUUAAUCAUCAGGCAACACUGCGUAUACCUGUGUGGCUAUCCUCAUC: 0.214
AGGUGUUGACAAGAUCCACCAUCUGUAAUGUCCUUGGCACAAUAAAACCAAAUGUCAGUUUCCCUGAGCAACUCUAUUCUGUGUGGGACACGGGUGGAUGGGCCUCUGGG: 0.327
CUACCUUUGCUGGCUUGGCUCCUGCUCCCAGGCCAGGGACCUCGGUCUGUCUACUACACACUCUGGUUUCUCCCUGCACUGUCUUUUUACUGUUAGCCAAACAUUUUGCC: 3.09
UUUAGUAGAGUAAUAGGUAGUAUCAGUUUGGAUUCUUAUUGUUAUCACCUAUGUACAAUGGAGAGGGGUUCUAAGCACAAAUCUGCUGCUCAUGUAACGGUGGUACAUAA: 0.334
GAAUUAUAAAUAUCUCCUUUUUCCUCGCUUCAUGCUAACUUGUCUCUAGAUAAAAUCUUAUUUCUUCAUACAUUGGACCACAAGGCAUAAAGAAGGUAGCUCAGCGCCAC: 0.274
GGCUCUGCCGUGCUAAUCUUCAACGUCCAUGUCAUUGACUUCCACAACCCUGCGGAUGUGGUGGAAAUCAGGACACUGUCCCGGCCAUCUGAGACCUGCAAUGAGACCAC: 0.247
UGGACAGGCACACGGCAUGGCCCUCGGCUAGAGCAGGGUCUGUGAUGGCCUCACCUGGCAGCCCUCUGGCCUAGUUCCCACCACACAUGAGGUGGUGGAAUGGCCUGAAG: 0.758
AACACCCCCCGUGUUAAUAACUUGGUCUGAAAUCUGUUUUUAUGAGCCGGGCCCCCUGUGCCUCUAGUAUACUUGUAUUGACUCUCAUAGUUACCCUUUUAGUUUUACUG: 0.282
AGUUUAAGUUAUAGGGCAUUUGGCUCAAAUUUUAAAAGGCCUUUUGUUUACCUAUAUUUCUGGAGGCUCCUGUAUUCUAGAACCCAAUCUCUCACCUGCUUGGUUGCAAG: 0.34

Series 3
Target: Histone acetyltransferase KAT6A, both winged helices, GST fusion (KAT6A, Homo sapiens, UniProt Q92794, residues 1-181)
Technique: protein binding microarray
Molecule type: double-stranded DNA, one strand shown
Sample: in vitro
Tested at: not given
Setting: 8-mer, flanks averaged, mean of 2 arrays, mostly near background
Reference: not given
Direction: higher = stronger binding
Quantity: E-score
Residues (chain): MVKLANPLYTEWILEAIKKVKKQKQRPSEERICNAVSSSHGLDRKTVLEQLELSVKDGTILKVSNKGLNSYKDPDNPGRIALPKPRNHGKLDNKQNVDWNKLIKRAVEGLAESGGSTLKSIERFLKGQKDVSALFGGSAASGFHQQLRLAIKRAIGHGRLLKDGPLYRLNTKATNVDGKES
CCTCACCA: -0.187
AGGCGCAC: 0.154
GGAAACCA: -0.103
GCATCATA: -0.0682
ATCAGCAT: -0.16
AACTGTAG: -0.247
ATGTGTGG: -0.164
CAGTGGCA: -0.217
CGGGATAG: 0.154
CCCCTCGG: 0.0517
GATCCTGA: -0.0424
AAGGCTCC: -0.125
GACTTCTC: -0.118
AACGCGAT: 0.151
CGTGTGGC: 0.0581
CCGTCCAG: 0.0998
ATGCATTA: -0.112
AGCTACGG: 0.0713
AGACGCAG: -0.0348
AAGCCGCA: 0.217
CCTGTCTA: -0.15
GAACACGC: 0.247
CAATGACC: -0.0821
ACGTCTAG: 0.0587
CCGCAAAA: 0.195

Series 4
Target: TAR DNA-binding protein 43, full length, His tag (TARDBP, Homo sapiens, UniProt Q13148, residues 1-414)
Technique: RNA Bind-n-Seq
Molecule type: RNA
Sample: in vitro
Tested at: 20 nM
Setting: 6-mer, flanks averaged, single round
Added: 150 mM KCl
Reference: input library
Direction: higher = stronger binding
Quantity: 6-mer enrichment (R)
UAUUUC: 0.582
ACGCCC: 0.672
ACAAUU: 0.667
ACUCCA: 0.614
AAGUUU: 0.611
ACAAUA: 0.895
AAAAAC: 0.786
AGCCUC: 0.618
AACGUA: 0.636
AUAGGG: 2.02
GGAUAG: 1.63
UCACGA: 0.629
GAAUUC: 0.622
UGACAG: 0.901

For quick reference, copied from above (series 2):
CACUAAGCCAGGCACCGGGCAGAAGCUGGGCCUUCCGCCUCCCUUGGAUGGGGUCAAGAGGCCAGGCCUGGCACAUUUUGGAGUGUCCUGGCUACCAGCUCUCACCUACA: 0.342
GCGCCUCCUGCGGCCCCUCCAGUGCUGUCCCUCCGCUGUCUAGCAGCCCUAGGGGCGUGUCAGCCGCACCUCUGGGACGGGCCCUUCCUUGCGGUGCUGCCGUCCUUUUG: 0.369
AAGCUGCCAGUCUAAAUUCUAAAUAGUGUAUCUGAAAUCUCAGUUCCCAAAAUAGUUGUCAGGUUUAAUCAUCAGGCAACACUGCGUAUACCUGUGUGGCUAUCCUCAUC: 0.214
AGGUGUUGACAAGAUCCACCAUCUGUAAUGUCCUUGGCACAAUAAAACCAAAUGUCAGUUUCCCUGAGCAACUCUAUUCUGUGUGGGACACGGGUGGAUGGGCCUCUGGG: 0.327
CUACCUUUGCUGGCUUGGCUCCUGCUCCCAGGCCAGGGACCUCGGUCUGUCUACUACACACUCUGGUUUCUCCCUGCACUGUCUUUUUACUGUUAGCCAAACAUUUUGCC: 3.09
UUUAGUAGAGUAAUAGGUAGUAUCAGUUUGGAUUCUUAUUGUUAUCACCUAUGUACAAUGGAGAGGGGUUCUAAGCACAAAUCUGCUGCUCAUGUAACGGUGGUACAUAA: 0.334
GAAUUAUAAAUAUCUCCUUUUUCCUCGCUUCAUGCUAACUUGUCUCUAGAUAAAAUCUUAUUUCUUCAUACAUUGGACCACAAGGCAUAAAGAAGGUAGCUCAGCGCCAC: 0.274
